Measurements of several laboratories.
Every numbered part comes from another study and shows a few of its results, in no order. Positions count from the first letter of the parent shown.

Block 1
Target: ABI1, truncated, D143A, DHFR fusion (Arabidopsis thaliana, UniProt P49597)
Technique: DHFR PCA, dose-response
Matrix: yeast
Notes: Hill fit, not affinity, not high confidence
With: (+)-ABA, dose series
Reading: lower = more sensitive
Parent: PYL1, truncated, DHFR fusion (Arabidopsis thaliana, UniProt Q8VZS8); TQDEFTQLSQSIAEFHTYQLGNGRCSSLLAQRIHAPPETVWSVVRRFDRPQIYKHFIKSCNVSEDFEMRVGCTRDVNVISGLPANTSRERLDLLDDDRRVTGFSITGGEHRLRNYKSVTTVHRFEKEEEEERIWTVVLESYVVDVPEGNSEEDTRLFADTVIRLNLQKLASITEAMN
Variant | ABA EC50 [µM]
S80F | 115
F47I | 9.19
S80Y | 182
V161M | 208
V121W | 8.65
L169G | 104
R45L | 1050
R99P | 1070

Block 2
Target: RNA binding protein fox-1 homolog 2, RRM domain, GST-SBP tag (RBFOX2, Homo sapiens, UniProt O43251-10, residues 100-194)
Technique: RNA Bind-n-Seq
Molecule type: RNA
Matrix: in vitro
Tested at: 365 nM
Notes: natural RNA segment, single round, ends assumed
Reference: no-protein control
Reading: higher = stronger binding
All sequences stand within: GGGAGUUCUACAGUCCGACGAUC … UGGAAUUCUCGGGUGCCAA
Residues (chain): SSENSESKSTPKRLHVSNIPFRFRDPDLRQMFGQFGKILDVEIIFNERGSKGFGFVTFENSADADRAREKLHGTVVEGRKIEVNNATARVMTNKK
Strand | RBNS enrichment (R)
AUCUAGUCCUACAAGUAGGGUUUUGCAUACUGUGUUUGCCCCUAGGGUUGUCAGUGCAUCAGAAAUACUUCUAAAUAGUGGUAAAAAUGCACAUGGUUAAUGCACAUGUU | 0.614
UAUGCUGCUUUAAACCUGGAAGUGGGAGUGAGAAGUUUGGAUUGCUGUCCACGCUUAGGAGCCAAGCCGGGAAUGCAUUAAUCAUUUCUUCGUUAACAGAGGAAUCUGCU | 0.386
AGACUUUGCAAGGCCUAAUGCCAAAGGACACAAGGCCUGUGUGGUGUCUGCCACACUCAGCAGGCCCUGUAGUGGUUCUCAUUUUGGCAUCUGGCUGGCUGCCUGCCUUA | 0.299
UUGGGAUUGUAGACAUGUGGGAGCUAUGACAGACGUGGCCUGGGGUAGAAAGAUCUCAGGAAAGCACCUUUCUCCUUUUCAGGGUGACCGUGCUCUUCACACUCUCUGAG | 0.445
UUCAAGCAAAUUAAAAACAAUAAGGUAGGAGGUAUUUCCCACGUCACCCCAAGGUGACCAGCCAUGGCCUGUCAUACUUAGGAGAGCAAGCUUUUUGCGGGUACAGAGCA | 0.571
CUUGGGGCAGACCAUUCGUUUAUUUAGAGAAGAGCUAUACAUUCUUCUUUCUGGUCCCAUCUUAAACGUCUUCUGUUGUGCUGCACCCCAGAUGGUGUCUCAGAUGCUUU | 0.367
GGCUACAGCUUUCAGCCACUUACGGCCCCAGCUGGACAGAGCAGUGCUGUGUGGGUACUCCAAGUGCUGACUUAGGAUAUUAAUGUGCUGCAACACAUUUGUCACCAGGC | 0.38
UAAAAUGUCUCUCUCACCCCCUAGCUUCAUGAUGUGACUCUUAAAAAACUAUAAUAGUUAACAACUGUUAGUAAGAUAGACCAAUUCUGAUUAGACUUUAUCAGGGAAUC | 0.312
GGCUAAUUUAUUUUAUUUCUGAUUAUUUUAUCCAGAGGGUACUUUUUUAAUGGAUAUUUGUAAAUCUUCCACUUAACCACUGAAAAUUAUUUUGUUUUAAUCCCACCCUU | 1.04
AAUGUUCAUUUUCCUACCUAAACAGGGUGGUUCAACAUAAAGGCUGAUGUUGUGUCCGUUUUGUAUUUUAUCUUUUGUUAAAGAUACAUAAAUGACAAUACUUAACUGUG | 0.334
UUUACUUGUUCAAAAAAAACAGUAAGAUCUCCCAAUUUGUUCUUUAUCCUGCACUUAAACUGAGUUUAAACUCUUUCAGCAGAUCUCCCUUCGUGGUAUCUUCACAGAUC | 0.521
CGUGAUCAGAUCCUGAAUCCCAACCCCCAAGACCUGAGGCCUCUGUCAUCUCCCCAUCCCCAGGCUAACAACCACAGCCCCUCACUUUUAGAGAUUAGGAGACCCUUUGU | 0.417

Block 3
Target: CCNE2, cyclin fold, Cln2 fusion (human)
Technique: yeast growth competition, sequencing
Matrix: yeast
Notes: strong parent motif
Reference: not given
Reading: higher = stronger binding
Parent: E2F1 docking peptide (human); PPVKRRLDLETDH; partner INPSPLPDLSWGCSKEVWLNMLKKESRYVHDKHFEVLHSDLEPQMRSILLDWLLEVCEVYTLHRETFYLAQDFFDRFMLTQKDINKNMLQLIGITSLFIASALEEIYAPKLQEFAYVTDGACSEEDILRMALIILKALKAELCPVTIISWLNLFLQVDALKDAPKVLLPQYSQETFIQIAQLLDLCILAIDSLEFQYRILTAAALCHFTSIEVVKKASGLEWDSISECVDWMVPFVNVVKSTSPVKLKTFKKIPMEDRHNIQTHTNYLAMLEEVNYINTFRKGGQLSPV
Variant | normalised enrichment score
PGVKRRLDLETDH [P2G] | 1.65
PPVKRRWDLETDH [L7W] | 0.906
PPAKRRLDLETDH [V3A] | 2.02
PPVKRRADLETDH [L7A] | -0.0851
PPMKRRLDLETDH [V3M] | 0.26
PPVKRRLDLYTDH [E10Y] | 0.83
PPVKRRLDLETDV [H13V] | 0.773
PPVKRRLDLGTDH [E10G] | 1.96
PPVKRRLDLEQDH [T11Q] | 0.887
PPVKRRFDLETDH [L7F] | -0.604
PFVKRRLDLETDH [P2F] | 1.59
PPVKLRLDLETDH [R5L] | -0.326
PPVKRRQDLETDH [L7Q] | 0.374
PPVKRRLDLETHH [D12H] | 1.68
PPVKRRLDLETCH [D12C] | 1.55
PPGKRRLDLETDH [V3G] | -0.364
PPVKRALDLETDH [R6A] | -0.0113
PPVKRELDLETDH [R6E] | 0.823
PPWKRRLDLETDH [V3W] | 0.684
PPVKRRHDLETDH [L7H] | -0.0403
PPVKRRLDLNTDH [E10N] | 2.27
PPVPRRLDLETDH [K4P] | -0.236
PPVKRRLDLETDY [H13Y] | 1.23
PPVDRRLDLETDH [K4D] | 0.253
PPVKRRLDLERDH [T11R] | 0.739

Block 4
Target: Fragile X messenger ribonucleoprotein 1, C-terminal low-complexity region (Fmr1, Mus musculus, UniProt P35922)
Technique: RNA Bind-n-Seq
Molecule type: RNA
Matrix: in vitro
Tested at: 200 nM
Notes: whole 134-nt RNA, ends assumed
With: 150 mM LiCl
Reference: input library
Reading: higher = stronger binding
Each molecule: 7-deaza-guanosine replaces G
All sequences stand within: GGGAGUUCUACAGUCCGACGAUC … UGGAAUUCUCGGGUGUCAAGG
Strand | log2 enrichment
CCUCAAGUCCUGUGCUACACAUCGUAUGUACCGAAUCGGUGGGGUGGGGUGGAAAGUAUUAUGUUACGCCGUUCGGAUCUGCACUUCCAG | -0.859
AGUCCUGUGCUACACAUCGUAUGUACCGAAUCGGGGAGGGGAAAAAGGGGUUUGGGGAAAGUAUUAUGUUACGCCGUUCGGAUCUGCACU | -1.23
UCUAUCCUGUCCCUCCACCCCACCCUCCACCUCAAUCCCCUCCCAUCUUCCCCAGACCUACCUCACCUACUAGGACCUGAGGCAGCUCCU | 1.58
CAAGUCCUGUGCUACACAUCGUAUGUACCGAAUCGGGGAAAGGGGUGGGGAGGGGAAAGUAUUAUGUUACGCCGUUCGGAUCUGCACUUC | 0.0759
CACAGACAACACGCACCCACACAGACACAGAGGGAAGGGGUUGGGAAAGGGACAGGGUGCACAGCAGGGCGGGGUAGGACCCCAGCCCCU | 0.503
CACAGACAACACGCACCCACACAGACACAGAGGGAAGGAAAUGGGAUGGGGACAGGGUGCACAGCAGGGCGGGGUAGGACCCCAGCCCCU | -0.841
CACAGACAACACGCACCCACACAGACACAGAGGGAAGGGGUUGGGAUGGGGACAGGGUGCACAGCAGGGCGGGGUAGGACCCCGGCCCCU | -0.455
UCCUGUGCUACACAUCGUAUGUACCGAAUCGGGAAAAAAGGGAAAAAAGGAAAAAAGGGGAAAGUAUUAUGUUACGCCGUUCGGAUCUGC | -0.846
UGGGAGGUGGAUUUUGUUUAUUUUUUUAGCUCAUUUCCAGGGGUGGGAAUUUUUUUUUAAUAUGUGUCAUGAAUAAAGUUGUUUUUGGAA | -0.445
UGGCCCUGGUGGCAUGCGGGGAGGAAGAGGUGUCCUCAUGGAUCGUGGUGGUCCCGGUGGAAUGUUCAGAGGUGGCCGUGGUGGAGACAG | 0.179
GCAGGAAGUAAAAACAAAUGGAAGUGCUUCGGAUAGUGGCAGGGGUGGGGGUUGCUAAGGAAAGGGUGGGAUGGGAGUGGGUAAAGAGUU | 1.6

Further values, each from its own experiment
Substance | target | test | test system | conditions | how to read | measurement | result
PhoQ, residues 284 288 289 292 302 303 NLSRDF | PhoP, residues 12 14 15 18 19 TQAIL (Escherichia coli, UniProt P23836) | Sort-seq, refers to: YFP reporter | E. coli | PhoQ-PhoP variant library, with: 10 µM Mg2+ | reference: high Mg2+ state, higher = stronger signaling | fold induction | 6.81

Excerpt of the above (block 2):
Strand | RBNS enrichment (R)
UAAAAUGUCUCUCUCACCCCCUAGCUUCAUGAUGUGACUCUUAAAAAACUAUAAUAGUUAACAACUGUUAGUAAGAUAGACCAAUUCUGAUUAGACUUUAUCAGGGAAUC | 0.312
CGUGAUCAGAUCCUGAAUCCCAACCCCCAAGACCUGAGGCCUCUGUCAUCUCCCCAUCCCCAGGCUAACAACCACAGCCCCUCACUUUUAGAGAUUAGGAGACCCUUUGU | 0.417
AUCUAGUCCUACAAGUAGGGUUUUGCAUACUGUGUUUGCCCCUAGGGUUGUCAGUGCAUCAGAAAUACUUCUAAAUAGUGGUAAAAAUGCACAUGGUUAAUGCACAUGUU | 0.614
UUGGGAUUGUAGACAUGUGGGAGCUAUGACAGACGUGGCCUGGGGUAGAAAGAUCUCAGGAAAGCACCUUUCUCCUUUUCAGGGUGACCGUGCUCUUCACACUCUCUGAG | 0.445
AAUGUUCAUUUUCCUACCUAAACAGGGUGGUUCAACAUAAAGGCUGAUGUUGUGUCCGUUUUGUAUUUUAUCUUUUGUUAAAGAUACAUAAAUGACAAUACUUAACUGUG | 0.334
UUCAAGCAAAUUAAAAACAAUAAGGUAGGAGGUAUUUCCCACGUCACCCCAAGGUGACCAGCCAUGGCCUGUCAUACUUAGGAGAGCAAGCUUUUUGCGGGUACAGAGCA | 0.571
GGCUACAGCUUUCAGCCACUUACGGCCCCAGCUGGACAGAGCAGUGCUGUGUGGGUACUCCAAGUGCUGACUUAGGAUAUUAAUGUGCUGCAACACAUUUGUCACCAGGC | 0.38
